Literature values, collected from citations in different studies.
Lines come from different studies, so protocols differ. Numbers after ± are the reported error.

NCCCC(N)(C(=O)O)C(F)F (stereo not drawn)  IC50 (Trypanosoma brucei gambiense; cell growth; IL1922): 36700 ± 12900 nM
C[C@]12CC[C@@H]3c4ccc(O)cc4CC[C@H]3[C@@H]1CC[C@@H]2OC(=O)c1ccccc1  EC50 (HT-22; cell protection; with: glutamate 20 mM): 9030 nM
Cc1ccc([N+](=O)[O-])cc1S(=O)(=O)N(C)/N=C/c1cnc2ccc(Br)cn12  IC50 (PI4KIIIα; enzyme activity, inhibitor; with: 10 µM ATP): > 100000 nM
CCC(C)c1c(O)ccc2c1CC[C@@H]1[C@@H]2CC[C@]2(C)C(=O)CC[C@@H]12 (stereo partly drawn)  EC50 (HT-22; cell protection; with: iodoacetic acid 40 µM): 828 nM
Oc1cccc(-c2nc(N3CCOCC3)c3oc4ncccc4c3n2)c1  IC50 (PI4KIIα; enzyme activity, inhibitor; with: 10 µM ATP): > 100000 nM
O=P(O)(O)OC[C@H]1O[C@H](OP(=O)(O)OP(=O)(O)O)[C@H](O)[C@@H]1O  kcat (HGPRT Trypanosoma cruzi isoform C; substrate, refers to: IMP; 6 to 200 µM, with: hypoxanthine 100 µM): 24 ± 1 s⁻¹
CC(=O)c1cccc(N[C@H]2[C@H](N)[C@@](NC(=O)N(C)C)([C@H](C)O)[C@@](C)(O)[C@@]2(O)COC(=O)c2c(C)cccc2O)c1  GI50 (SNB-19): < 100 nM
Cc1ccc(C(=O)Nc2ccc(S(=O)(=O)O)c3cc(S(=O)(=O)O)cc(S(=O)(=O)O)c23)cc1NC(=O)c1cccc(NC(=O)Nc2cccc(C(=O)Nc3cc(C(=O)Nc4ccc(S(=O)(=O)O)c5cc(S(=O)(=O)O)cc(S(=O)(=O)O)c45)ccc3C)c2)c1  IC50 (Trypanosoma brucei gambiense; cell growth; IL1922): 64 ± 1.8 nM
COc1ccc2c(c1OC)N=C(NC(=O)c1cccnc1)N1CCN=C21  IC50 (phosphatidylinositol 5-phosphate 4-kinase type II beta; enzyme activity, inhibitor; with: 10 µM ATP): > 100000 nM
C[C@@]12CC=C3c4ccc(O)cc4CC[C@@H]3[C@H]1CC[C@H]2O  EC50 (HT-22; cell protection; with: glutamate 20 mM): 851 nM
N=C(N)c1ccc(OCCCCCOc2ccc(C(=N)N)cc2)cc1  IC50 (Trypanosoma brucei gambiense; cell growth; IL1922): 14 ± 3.1 nM
C[C@]12CC[C@@H]3c4ccc(O)cc4CC[C@H]3[C@@H]1CC[C@@H]2O  EC50 (HT-22; cell protection; with: glutamate 20 mM): 1980 nM
Cc1cc(C(C)Nc2ccccc2)c2oc(-c3ccncc3)cc(=O)c2c1 (stereo not drawn)  IC50 (phosphatidylinositol 5-phosphate 4-kinase type II beta; enzyme activity, inhibitor; with: 10 µM ATP): > 100000 nM
Cc1c(O)c(C23CC4CC(CC(C4)C2)C3)cc2c1CC[C@@H]1[C@@H]2CC[C@]2(C)C(=O)CC[C@@H]12  EC50 (HT-22; cell protection; with: glutamate 10 mM): 12 nM
CC(=O)O[C@H]1Cc2ccccc2N(C(N)=O)c2ccccc21  epileptiform discharge duration decrease (mouse pilocarpine chronic epilepsy; p.o., 300 mg/kg once daily, 6 weeks; reference: vehicle): 74%

Excerpt of the above:
CCC(C)c1c(O)ccc2c1CC[C@@H]1[C@@H]2CC[C@]2(C)C(=O)CC[C@@H]12 (stereo partly drawn)  EC50 (HT-22; cell protection; with: iodoacetic acid 40 µM): 828 nM
COc1ccc2c(c1OC)N=C(NC(=O)c1cccnc1)N1CCN=C21  IC50 (phosphatidylinositol 5-phosphate 4-kinase type II beta; enzyme activity, inhibitor; with: 10 µM ATP): > 100000 nM
